Results from different studies.
Compare with care: the assays were run in different laboratories. ± marks the error that the study gave.

SMILES | cell line | assay | test system | conditions | scale | measurement | value
COc1ccc(-c2oc3cc(O)cc(O)c3c(=O)c2O)cc1 | human infant foreskin fibroblasts | trypan blue exclusion | – | 17 µM, 72 h, 10% FBS | – | viability | 83.9 ± 1.31%
O=C(O[C@@H]1Cc2c(O)cc(O)cc2O[C@@H]1c1cc(O)c(O)c(O)c1)c1cc(O)c(O)c(O)c1 | Caco-2 | – | – | concentration not given, 3 h | – | cellular accumulation | 488 ± 33 pmol/well
CC/C(=C\c1ccc(OCC(=O)NC(Cc2ccccc2)C(=O)N2CCOCC2)cc1)[N+](=O)[O-] (centres unmarked) | THP-1 | MTT | RPMI-1640 with 10% FBS | 72 h, pH 7.4 | – | CC50 | 28.7 µM
C=C(C[C@H](N)C(=O)O)C(N)=O | MDA-MB-231 | necrosis | – | 24 h | – | EC50 | 8.91 µM
COc1cc2c(Nc3ccc(Br)cc3F)ncnc2cc1OCC1CCN(C)CC1 | hiPSC-derived cardiomyocytes | – | – | 72 h | – | concentration of contraction prolongation | ≥ 3.7 µM
O=C(c1ccccc1)c1ccc(-c2oc3cc(O)cc(O)c3c(=O)c2O)cc1 | human infant foreskin fibroblasts | trypan blue exclusion | – | 13 µM, 72 h, 10% FBS | – | viability | 111 ± 3.2%
CN(Cc1cnc2nc(N)nc(N)c2n1)c1ccc(C(=O)N[C@@H](CCC(=O)O)C(=O)O)cc1 | LX-2 stellate cells | cell migration, confocal high-content imaging | liver microfluidic device with hepatocytes, EA.hy926, U-937 | 30 nM, with: dexamethasone 100 nM | relative to: vehicle | time to significant decrease | 7 to 17 days
C=C(C[C@@H]1CCSc2ccc(F)cc21)c1ccccc1 | RAW264.7 | cytotoxicity, CCK-8 | – | 24 h | – | IC50 | 80.4 µM
C=C(C[C@H](N)C(=O)O)C(=O)Nc1ccccc1 | MCF-10A | necrosis | – | 24 h | – | EC50 | > 316 µM
Cc1c2oc3c(C)ccc(C(=O)N[C@@H]4C(=O)N[C@H](C(C)C)C(=O)N5CCC[C@H]5C(=O)N(C)CC(=O)N(C)[C@@H](C(C)C)C(=O)O[C@@H]4C)c3nc-2c(C(=O)N[C@@H]2C(=O)N[C@H](C(C)C)C(=O)N3CCC[C@H]3C(=O)N(C)CC(=O)N(C)[C@@H](C(C)C)C(=O)O[C@@H]2C)c(N)c1=O | Caco-2 | CCK-8 | – | 1 to 6 µM, 5 h | – | viability | > 95%
C=C(C[C@H](N)C(=O)O)C(=O)NCc1ccccc1 | MDA-MB-231 | necrosis | – | 24 h | – | EC50 | > 316 µM
CCCCCCCCCC[N+](C)(C)C | horse erythrocytes | haemolysis | – | – | – | CC50 | 39100 µM
Cc1ccc(-c2oc3cc(O)cc(O)c3c(=O)c2O)cc1 | human infant foreskin fibroblasts | trypan blue exclusion | – | 12 µM, 72 h, 10% FBS | – | viability | 65 ± 4.12%
O=C1CN(c2nc(=O)c3cc(C(F)(F)F)cc([N+](=O)[O-])c3s2)CCN1C1CCCC1 | MDCK-MDR1 | – | – | 60 (unit not given), pH 7.4 | – | Papp A to B | > 5.5 ×10⁻⁶ cm/s
CCCCCCCCCCCCCCCC[N+](C)(C)C | HEK293-A | whole-cell patch clamp | – | – | – | membrane partition constant | 55000 M⁻¹
O=C(Cc1c(-c2ccccc2)n[nH]c1-c1ccccc1)NO | SH-SY5Y | – | serum-free DMEM | 30 µM, 24 h, 1% DMSO | – | viability | 92%

SMILES | cell line | assay | test system | conditions | scale | measurement | value
NCCC(=O)N[C@@H](Cc1cnc[nH]1)C(=O)O | SKPT | – | – | 10 µM, 15 min, basolateral uptake, apical pH 6.0 | – | pH of maximal uptake | 6.5
CCCN1CCN(S(=O)(=O)c2ccc(C(=O)Nc3nc(-c4cc(C)ccc4C)cs3)cc2)CC1 | THP-1 | cell growth or viability, MTT | – | 5 µM, 18 h | – | viability | < 80%
C=C(C[C@@H]1CCOc2ccccc21)c1cc(C)cc(C)c1 | RAW264.7 | cytotoxicity, CCK-8 | – | 24 h | – | IC50 | 110 µM
O=C(c1ccccc1)c1cccc(-c2oc3cc(O)cc(O)c3c(=O)c2O)c1 | human infant foreskin fibroblasts | trypan blue exclusion | – | 12 µM, 72 h, 10% FBS | – | viability | 90.4 ± 4.85%
C#C[C@]1(CO)O[C@@H](n2cnc3c(N)nc(F)nc32)C[C@@H]1O | MDCK-II monolayer | – | – | 25 µM, with: EDTA | – | Papp basolateral to apical | 2.88 ± 0.26 ×10⁻⁶ cm/s
C=C(C[C@H](N)C(=O)O)C(=O)Nc1ccc(Cl)cc1 | MDA-MB-231 | necrosis | – | 24 h | – | EC50 | > 316 µM
O=c1c(O)c(-c2ccccc2)oc2cc(O)cc(O)c12 | human infant foreskin fibroblasts | trypan blue exclusion | – | 20 µM, 72 h, 10% FBS | – | viability | 92.6 ± 5.58%
CC/C(=C(\c1ccccc1)c1ccc(OCCN(C)C)cc1)c1ccccc1 | MCF-10A | necrosis | – | 24 h | – | EC50 | 269 µM
CCCCCCCC(=O)OC | Caco-2 | WST-1 | – | 50 and 500 µM, 24 h | – | cytotoxicity | not toxic
C=C(C[C@H](N)C(=O)O)C(=O)N1CCCCC1 | MDA-MB-231 | necrosis | – | 24 h | – | EC50 | > 316 µM
C=C(C[C@@H]1CCSc2ccc(Br)cc21)c1ccccc1 | RAW264.7 | cytotoxicity, CCK-8 | – | 24 h | – | IC50 | 75.1 µM
C=C(C[C@H](N)C(=O)O)C(=O)Nc1ccc(F)cc1 | MDA-MB-231 | necrosis | – | 24 h | – | EC50 | > 316 µM
C=C(C[C@@H]1CCSc2ccccc21)c1ccc(Cl)cc1 | RAW264.7 | cytotoxicity, CCK-8 | – | 24 h | – | IC50 | 190 µM
CO[C@@H]1[C@H](O)[C@@H](COP(=O)(O)OP(=O)([O-])OP(=O)(O)OP(=O)(O)OC[C@H]2O[C@@H](n3cnc4c(=O)[nH]c(N)nc43)[C@H](O)[C@@H]2O)O[C@H]1n1c[n+](C)c2c(O)nc(N)nc21 | human immature dendritic cells | translation, item: luciferase | – | – | – | time of maximal expression | 5.3 ± 0.05 h
O=C(c1cc(Cc2n[nH]c(=O)c3ccccc23)ccc1F)N1CCN(C(=O)C2CC2)CC1 | MCF-10A | necrosis | – | 24 h | – | EC50 | > 316 µM
O=c1c(O)c(-c2ccc(O)c(O)c2)oc2cc(O)cc(O)c12 | human infant foreskin fibroblasts | trypan blue exclusion | – | 36 µM, 72 h, 10% FBS | – | viability | 94 ± 7.67%

Excerpt of the above:
SMILES | cell line | assay | test system | conditions | scale | measurement | value
CN(Cc1cnc2nc(N)nc(N)c2n1)c1ccc(C(=O)N[C@@H](CCC(=O)O)C(=O)O)cc1 | LX-2 stellate cells | cell migration, confocal high-content imaging | liver microfluidic device with hepatocytes, EA.hy926, U-937 | 30 nM, with: dexamethasone 100 nM | relative to: vehicle | time to significant decrease | 7 to 17 days
C=C(C[C@@H]1CCSc2ccc(F)cc21)c1ccccc1 | RAW264.7 | cytotoxicity, CCK-8 | – | 24 h | – | IC50 | 80.4 µM
C=C(C[C@H](N)C(=O)O)C(=O)Nc1ccccc1 | MCF-10A | necrosis | – | 24 h | – | EC50 | > 316 µM
Cc1c2oc3c(C)ccc(C(=O)N[C@@H]4C(=O)N[C@H](C(C)C)C(=O)N5CCC[C@H]5C(=O)N(C)CC(=O)N(C)[C@@H](C(C)C)C(=O)O[C@@H]4C)c3nc-2c(C(=O)N[C@@H]2C(=O)N[C@H](C(C)C)C(=O)N3CCC[C@H]3C(=O)N(C)CC(=O)N(C)[C@@H](C(C)C)C(=O)O[C@@H]2C)c(N)c1=O | Caco-2 | CCK-8 | – | 1 to 6 µM, 5 h | – | viability | > 95%
